Published values of several laboratories.
Every numbered part comes from another study and shows a few of its results, in no order.

Sample 1
Target: RING finger protein unkempt homolog, zinc fingers 1-6, GST-SBP tag (UNK, Homo sapiens, UniProt Q9C0B0, residues 30-357)
Technique: RNA Bind-n-Seq
Form: RNA
Medium: in vitro
Concentration: not given
Notes: RNA with constant flanks, human and mouse sites, ends assumed
Reference: input RNA pool
Reading: higher = stronger binding
Shared flanks, not repeated: GGGAGUUCUACAGUCCGACGAUC … CAACAGAGGAUUGAGCAUCA
Residues (chain): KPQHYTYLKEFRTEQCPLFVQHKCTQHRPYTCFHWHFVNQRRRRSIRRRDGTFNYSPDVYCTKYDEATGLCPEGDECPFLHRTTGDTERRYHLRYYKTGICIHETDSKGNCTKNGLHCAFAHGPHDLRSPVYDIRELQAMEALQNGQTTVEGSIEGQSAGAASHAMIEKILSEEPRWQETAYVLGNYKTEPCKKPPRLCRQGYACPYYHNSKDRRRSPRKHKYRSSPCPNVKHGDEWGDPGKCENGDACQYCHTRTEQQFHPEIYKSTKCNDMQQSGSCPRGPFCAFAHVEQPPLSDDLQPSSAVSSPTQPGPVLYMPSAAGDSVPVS
| Oligonucleotide | bound/input enrichment |
| --- | --- |
| CGAGAAGUAGGAAUCCCUCCAGAACAAUCCUUGGAAACUGCUAAGGCAGUAAAGGAGCGCUAUAGUUAUGUCUGCCCAGAUUUAGUAAAAGAAUUUAACAAGUAUGAUACAGAUGGGUCA | 8.72 ratio |
| AGACCACGACUCCAGCUUAAACCUCGAACAGUCGCGACGCCCCUCAAUCAAGUAGCCAAUCCCAACUCUGCUAUCUUCGGGGGUGCCAGGCCUAGAGAGGAAGUCGUUCAAAAGGAGCAA | 0.0947 ratio |
| AAUAAGCUACAUAAUUCCGAAGUUAUAUUUCCUCUACCAUUUCCGUAAUUCUUACUCCAUUUUAGAAAACUUUGUUAGGCCAAAGACAAAUAGUAGGCAAGAUGGCACAGGGCAUGAAGU | 2.19 ratio |
| CUGGCUUAGAUAAUAUGGCUACACACUUAAGUCAGCAUGAAACUCAUUCUUGCCGAGUUCUAGUAGAGCAAGUUUCUGUUUGUAUCCCAACUUCUGAACGUCUUUCUGAAAUAAAAACUG | 0.524 ratio |
| GACCCCUUGAUGGCCCAAGAAUCCCAUAUGCUAGCUUCUAACACCAUGGAGACCCAUAUGUUAGCAUCCAAUACCAUGGACUCCCAGAUGCUAGCAUCCAACACUAUGGAUUCUCAGAUG | 0.279 ratio |
| GGACAUCUCCAGUCAGAAAGUGGAGCAGUUCCGAAGAGGAAAGACCCCUUAACACAUGCUAGUAAUUCAUUGCCUCGAUCAAAAACUGUCCUGAAAAGUGGCUCCGCAGGGCUCUCCGGU | 0.977 ratio |
| ACAACAGCUAGAGCUUUUGCUGUCGUAGCCUCUGCCCUGGGCAUCCCUUCUUUAUUGCCUUUCUUAAAAGCUGUGUGCAAAAGCAAGAAGUCUUGGCAAGCGAGGCACACUGGUAUUAAG | 0.126 ratio |
| GCCCAGGGUCGCCAUGUAGAAGUUUUUGAGCUCCUCAAACCUCCAUCUGGAGGCCUUGGGUUUAGUGUUGUGGGACUAAGAAGUGAAAACAGAGGAGAGCUGGGAAUAUUUGUUCAAGAG | 0.513 ratio |
| UUGUCCUAUGAUGCUAUUAUCAUAGACUAAUGACAUUUAUCUUCAAAACACCAAAUUGUCUUUAGAAAAAUUAAUGUGAUUACAGGUAGAGGCCUUCUAGGUGAGACACUUUUAAGGUAC | 0.798 ratio |
| GAGGAUGCUCCUGGGACUUCGGAGCAGAGCUGCUGUGCUCGGGAAGACGGCAUUGAUGCUGUAGAGGUGGCAGCCGACCGACCUGGCAGUCCUCGGAGCUCGGCCUCUGGUACACACUCU | 0.043 ratio |
| UUGCUACUGACUCCCUGGGUCAAGUUCCUGUGGGAAUCAUACAGGCAGUGUUUGGACCUUCUUCGAAACAAUUCUAGAGUAGAGCGCCUUUACCAUGAUAUCGCCCAACAAGCUUUCAAA | 0.156 ratio |

Sample 2
Target: Histone acetyltransferase KAT6A, winged helix 2, GST fusion (KAT6A, Homo sapiens, UniProt Q92794, residues 85-181)
Technique: protein binding microarray
Form: double-stranded DNA, one strand shown
Medium: in vitro
Concentration: not given
Notes: 8-mer, flanks averaged, mean of 2 arrays, mostly near background
Reference: not given
Reading: higher = stronger binding
Target sequence (chain): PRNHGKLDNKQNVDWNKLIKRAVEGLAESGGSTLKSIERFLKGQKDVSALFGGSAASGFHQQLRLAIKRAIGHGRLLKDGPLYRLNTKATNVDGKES
| Oligonucleotide | E-score |
| --- | --- |
| ATGCTTGC | 0.0103 |
| GGACCGGA | 0.096 |
| ATTCATTC | -0.103 |
| CCCAGAGG | 0.0479 |
| CGAAATCA | 0.156 |
| GAAAATAC | -0.0199 |
| AAGACTGG | -0.22 |
| CCAAGGCG | 0.0217 |
| ACGGGCCG | 0.0309 |
| CTGTAGCA | -0.13 |
| CGTGTGAC | -0.051 |
| AATCGAAA | -0.0391 |
| ACGGAGTA | 0.141 |
| CCTGGACA | -0.0424 |
| AATATGAA | -0.118 |
| GTTGTATA | -0.0345 |
| TACCCTGA | -0.0612 |
| GAATTACC | -0.04 |
| AGTCGGGG | -0.0453 |
| AATATCGT | 0.0799 |
| CCCAAATC | 0.0591 |
| AGTTACGA | 0.189 |
| CGAAGGCG | 0.177 |

Sample 3
Target: Prothrombin, mature alpha-thrombin (F2, Homo sapiens, UniProt P00734)
Technique: aptamer microarray, sandwich
Form: DNA with 2'F-ANA
Medium: in vitro
Concentration: 200 nM
Notes: whole 15-mer aptamer, many near background
Together with: Cy3 exosite-II aptamer, 400 nM
Reading: higher = stronger binding
Oligonucleotide: GGTTGGTGTGGTTGG
| Modification | mean fluorescence intensity [a.u.] |
| --- | --- |
| 2'F-ANA at 1 6 8 11 12 13 14 | 66.5 |
| 2'F-ANA at 1 2 3 5 7 10 13 14 15 | 49.9 |
| 2'F-ANA at 2 5 6 8 10 14 15 | 43.9 |
| 2'F-ANA at 2 3 4 6 9 11 13 15 | 310 |
| 2'F-ANA at 1 5 7 8 12 | 139 |
| 2'F-ANA at 1 2 9 11 14 | 58.6 |
| 2'F-ANA at 2 4 5 7 8 9 14 15 | 50.6 |
| 2'F-ANA at 1 3 7 8 9 11 12 13 14 | 124 |
| 2'F-ANA at 2 9 12 13 14 15 | 210 |
| 2'F-ANA at 2 3 8 9 10 11 12 | 399 |
| 2'F-ANA at 1 4 5 6 8 9 13 | 50.7 |
| 2'F-ANA at 1 3 5 7 11 13 14 | 72.2 |
| 2'F-ANA at 3 9 10 11 12 14 15 | 357 |
| 2'F-ANA at 2 6 7 11 14 15 | 112 |
| 2'F-ANA at 3 4 6 8 9 13 14 | 209 |
| 2'F-ANA at 2 4 9 11 12 | 461 |
| 2'F-ANA at 1 2 3 5 7 9 12 14 15 | 46.7 |

Sample 4
Target: PABPC1L2, full length, GST fusion (mouse, UniProt A0ABA7IW68)
Technique: RNAcompete
Form: RNA
Medium: in vitro
Concentration: 20 nM
Notes: 7-mer, probes averaged, single round
Reference: mean of 7-mers
Reading: higher = stronger binding
Target sequence (chain): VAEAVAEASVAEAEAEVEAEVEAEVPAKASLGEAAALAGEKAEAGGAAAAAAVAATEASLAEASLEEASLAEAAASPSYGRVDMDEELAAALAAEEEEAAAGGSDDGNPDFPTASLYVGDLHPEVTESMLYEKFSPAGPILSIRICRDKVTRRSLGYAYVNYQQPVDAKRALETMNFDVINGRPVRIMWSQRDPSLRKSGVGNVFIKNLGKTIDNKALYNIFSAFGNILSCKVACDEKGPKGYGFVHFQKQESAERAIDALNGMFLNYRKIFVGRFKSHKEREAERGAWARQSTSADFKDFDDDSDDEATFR
| Oligonucleotide | 7-mer Z-score |
| --- | --- |
| UACUUCC | -0.258 |
| AUCAACC | -0.119 |
| CUGGGGC | 0.0787 |
| GGGGUUU | -0.224 |
| CCGUUUU | -0.447 |
| CGGGACU | 0.253 |
| AUUUUGU | -0.258 |
| GAUUCGA | -0.307 |
| AUACACG | 0.066 |
| UUGCUUC | -0.376 |
| AAGUAAA | 1.14 |
| CUCAUGA | -0.103 |
| GACGGCA | 0.128 |
| UCUUGUG | -0.425 |
| CAGAAAU | 1.16 |
| GGGGUUG | 0.164 |
| CAUGCCG | -0.335 |
| AACCCGU | -0.124 |
| ACACGCA | -0.0482 |
| GCAGGCG | 0.256 |
| CAUGAAG | -0.113 |
| CUAACAA | 0.126 |

Sample 5
Target: Interferon regulatory factor 7, full length, phosphomimetic (IRF7, Homo sapiens, UniProt Q92985, residues 1-503, S101K/S471D/S472D/S475D/S476D/S477D/S483D/S484D/S487D)
Chain of UniProt Q92985 (whole entry, unmodified, looked up): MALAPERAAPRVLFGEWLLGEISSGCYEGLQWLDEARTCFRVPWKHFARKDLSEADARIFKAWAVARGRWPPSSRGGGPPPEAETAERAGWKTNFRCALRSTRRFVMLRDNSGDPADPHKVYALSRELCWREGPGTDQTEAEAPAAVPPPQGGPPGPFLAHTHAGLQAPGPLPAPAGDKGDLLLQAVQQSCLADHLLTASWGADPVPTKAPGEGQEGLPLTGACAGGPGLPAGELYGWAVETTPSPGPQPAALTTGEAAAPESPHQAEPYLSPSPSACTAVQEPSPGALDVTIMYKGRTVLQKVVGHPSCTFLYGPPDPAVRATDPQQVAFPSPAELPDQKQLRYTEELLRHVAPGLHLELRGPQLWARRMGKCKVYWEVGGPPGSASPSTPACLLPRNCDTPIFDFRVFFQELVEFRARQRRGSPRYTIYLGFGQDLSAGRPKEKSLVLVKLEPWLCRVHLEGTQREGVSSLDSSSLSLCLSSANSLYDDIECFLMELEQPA
Technique: protein-binding microarray
Form: double-stranded DNA, one strand shown
Medium: in vitro
Concentration: 250 nM
Notes: 60-bp whole probe
Together with: salmon DNA 0.4 mg/ml
Reference: random background probes
Reading: higher = stronger binding
Shared flanks, not repeated: GCCTAGCAC … GTCTTGATTCGCTTGACGCTGCTG
| Oligonucleotide | log fluorescence |
| --- | --- |
| TTTTCAGCATCGCTCAGCACGTGCTAG | 0.602 z-score |
| TCAACTTTCTTTAACTCACTGTGCTAG | 0.37 z-score |
| CTAGGTTTCCTTATCCTTTAGTGCTAG | 3.22 z-score |
| TTAGGTCTCAGACTGGATTAGTGCTAG | -0.216 z-score |
| GACGACTTCAGTTTCGAGACGTGCTAG | 4.03 z-score |
| TTTGATTTCAGTCTCGATTAGTGCTAG | 1.64 z-score |
| GACGGTTTCGGGTATGGGGACGTGCTA | 6.34 z-score |
| TCACATTTACATTTTAGACTGTGCTAG | 0.944 z-score |
| TTAGGTATCCACACTGGGTTAGTGCTA | -0.413 z-score |
| TTAGGTCTCGGACTGGGTTAGTGCTAG | 0.462 z-score |
| TTTTGAAGTTTGGCGTTGACGTGCTAG | -0.504 z-score |
| AGTCTCTGCAGGGAGAGAGCGTGCTAG | -0.474 z-score |
| AACGGTATCGGGACTGGGGACGTGCTA | -0.0606 z-score |
| GACGGTCTCCTTCTCTTGACGTGCTAG | 0.0881 z-score |
| TTAGGTCGCGGTCTCGGTTAGTGCTAG | 1.56 z-score |
| TTAGAACTGAGACTCGATTAGTGCTAG | 0.923 z-score |
| TTAGGTTGCGACTTTCGGTTAGTGCTA | 1.57 z-score |
| AAAACACTAATTTTCATTTTGTGCTAG | 1.78 z-score |
| CTTCCTCTTTCACTGGTCCTGTGCTAG | 2.39 z-score |
| GACGGACTGGGGTACCGGGACGTGCTA | -0.782 z-score |

Repeated from above (sample 2):
| Oligonucleotide | E-score |
| --- | --- |
| CGAAGGCG | 0.177 |
| AGTCGGGG | -0.0453 |
| CCCAGAGG | 0.0479 |
| AAGACTGG | -0.22 |
| GAATTACC | -0.04 |
| CGAAATCA | 0.156 |
| GAAAATAC | -0.0199 |
| GGACCGGA | 0.096 |
| TACCCTGA | -0.0612 |
| AATATGAA | -0.118 |
| CCTGGACA | -0.0424 |
| CCCAAATC | 0.0591 |
